Measured values of several laboratories.
Compare with care: the assays were run in different laboratories.

Cn1nc(NS(C)(=O)=O)c2c(Cl)ccc(-n3c([C@H](Cc4cc(F)cc(F)c4)NC(=O)Cn4nc(C(F)F)c5c4C(F)(F)[C@@H]4C[C@H]54)nc4nc(OCCC(F)(F)F)ccc4c3=O)c21 — patients with laboratory abnormality (refers to: LDL cholesterol grade 2 increase; human; 200 mg once daily, powder in bottle): 17%
COc1ncnn2ccc(-c3cnc4nc(C)n(Cc5nnc([C@@H](C)F)o5)c4c3)c12 — patients with taste disorder (human; oral, dose not given, grade 3): 0%
CN(C)C(=O)c1cc2cnc(Nc3ccc(N4CCNCC4)cn3)nc2n1C1CCCC1 — patients with adverse event (refers to: Infections, AESI; human, HR+/HER2− advanced breast cancer; oral, dose not given, grade 3, CTCAE v4.03): 4.8%
CN[C@@H](C)C(=O)N[C@H]1CN(S(=O)(=O)c2cccc(S(=O)(=O)N3CC[C@H]4CC[C@@H](C(=O)NC(c5ccccc5)c5ccccc5)N4C(=O)[C@@H](NC(=O)[C@H](C)NC)C3)c2)CC[C@H]2CC[C@@H](C(=O)NC(c3ccccc3)c3ccccc3)N2C1=O — patients with treatment-related asthenia (human, advanced solid tumours; 4 mg): 0%
N[C@@H]1c2ccccc2OC12CCN(c1cnc3c(N4CCCc5ncccc54)n[nH]c3n1)CC2 — patients with adverse event (refers to: anemia; human advanced or metastatic solid tumours; oral, dose not given, phase Ia all doses): 27%
CNC(=O)c1cc(Oc2ccc(NC(=O)Nc3cc(C(C)(C)C)nn3-c3ccc4ncccc4c3)c(F)c2)ccn1 — patients with related serious Cardiomyopathy AE (human, trial; oral, dose not given, all doses): 2%
Cn1cncc1-c1c(F)cncc1NC(=O)c1c(N)nn2cc(F)cnc12 — patients grade ≥3 Anemia (human patients; oral, 150 mg twice daily, 4 days on 3 days off): 100%
Cc1cn([C@H]2O[C@@H](CO[P@@](=O)(N[C@@H](C)C(=O)OC(C)C)Oc3ccccc3)[C@H](O)[C@H]2F)c(=O)[nH]c1=O — patients with TEAE (refers to: Headache; human; 50 mg): 17%
COc1ccc(-c2c(-c3ccc(C#N)c(F)c3)nc(N3CCC(N)CC3)n(C)c2=O)cc1F — patients with TRAE any grade (refers to: conjunctival hemorrhage; human patients; oral, dose not given, dose escalation): 4%
C=CC(=O)Nc1cc(Nc2nccc(Nc3cc(Cl)c(F)cc3C(C)(C)O)n2)c(OC)cc1N1CC[C@@H](N(C)C)C1 — patients with hypokalaemia (human patients; oral, 100 mg, treatment-emergent adverse events): 11.1%
C=CCNc1c(O)cc2c(O)c1C[C@@H](C)C[C@H](OC)[C@H](O)[C@@H](C)/C=C(\C)[C@H](OC(N)=O)[C@@H](OC)/C=C\C=C(/C)C(=O)N2 — patients with first-degree AV block (human unresectable metastatic GIST or sarcoma; intravenous, dose not given, treatment-emergent, all doses): 22%
O=C1Nc2cc3[nH]nc(-c4ccncc4)c3cc2CN1Cc1ccccc1 — patients with vomiting (CTCAE v4.03; human, relapsed or refractory advanced solid tumours; intravenous, 9.6 mg/kg, pooled schedules): 33%
C[C@]1(O)C[C@@](N)(c2ccc(-c3nc4n(c3-c3ccccc3)COc3ccncc3-4)cc2)C1 — patients with Dyspnea TEAE (human, advanced or metastatic solid tumours; 24 mg intermittent, phase I dose escalation): 25%
C[C@@H]1OC(=O)NN=C1c1ccc(-c2ccc(F)cc2)c(C(F)(F)F)c1 — patients with adverse event (phase I trial, refers to: Ascites all grades; human patients; 20 mg loading then 1 mg daily): 50%

Excerpt of the above:
Cc1cn([C@H]2O[C@@H](CO[P@@](=O)(N[C@@H](C)C(=O)OC(C)C)Oc3ccccc3)[C@H](O)[C@H]2F)c(=O)[nH]c1=O — patients with TEAE (refers to: Headache; human; 50 mg): 17%
O=C1Nc2cc3[nH]nc(-c4ccncc4)c3cc2CN1Cc1ccccc1 — patients with vomiting (CTCAE v4.03; human, relapsed or refractory advanced solid tumours; intravenous, 9.6 mg/kg, pooled schedules): 33%
